{"data": "Measured values collected from several papers", "note": "A part holds a random share of what one study measured. Positions count from the first letter of the parent shown."}
{"data": "Study 1", "Substance": "NCL (Homo sapiens, UniProt P19338)", "method": "cross-linking MS", "matrix": "cell fractions"}
{"partner": "C16orf87 (Homo sapiens, UniProt Q6PH81)", "with": "DSSO", "cross-linked residues": "K87 to K79"}
{"partner": "SYT1 (Homo sapiens, UniProt P21579)", "with": "DSSO", "cross-linked residues": "K477 to K108"}
{"partner": "PDCD11 (Homo sapiens, UniProt Q14690)", "with": "DMTMM", "cross-linked residues": "E590 to K1524"}
{"data": "Study 2", "target": "CCNF, cyclin fold, Cln2 fusion (human)", "method": "yeast growth competition, sequencing", "matrix": "yeast", "setting": "weak parent motif", "reference": "not given", "direction": "higher = stronger binding", "parent": "WEE2 docking peptide (human); KELRQKLNFSYCE"}
{"Variant": "K6A", "normalised enrichment score": 0.286}
{"Variant": "S10A", "normalised enrichment score": 1.04}
{"Variant": "F9A", "normalised enrichment score": 0.646}
{"Variant": "Y11A", "normalised enrichment score": 1.15}
{"Variant": "R4A", "normalised enrichment score": 0.431}
{"Variant": "L7A", "normalised enrichment score": 0.319}
{"data": "Study 3", "target": "Interferon regulatory factor 7, full length, phosphomimetic (IRF7, Homo sapiens, UniProt Q92985, residues 1-503, S101K/S471D/S472D/S475D/S476D/S477D/S483D/S484D/S487D)", "method": "protein-binding microarray", "molecule type": "double-stranded DNA, one strand shown", "matrix": "in vitro", "concentration": "250 nM", "setting": "60-bp whole probe", "with": "salmon DNA 0.4 mg/ml", "reference": "random background probes", "direction": "higher = stronger binding", "shared flanks, not repeated": "GCCTAGCAC … GTCTTGATTCGCTTGACGCTGCTG", "Residues (chain)": "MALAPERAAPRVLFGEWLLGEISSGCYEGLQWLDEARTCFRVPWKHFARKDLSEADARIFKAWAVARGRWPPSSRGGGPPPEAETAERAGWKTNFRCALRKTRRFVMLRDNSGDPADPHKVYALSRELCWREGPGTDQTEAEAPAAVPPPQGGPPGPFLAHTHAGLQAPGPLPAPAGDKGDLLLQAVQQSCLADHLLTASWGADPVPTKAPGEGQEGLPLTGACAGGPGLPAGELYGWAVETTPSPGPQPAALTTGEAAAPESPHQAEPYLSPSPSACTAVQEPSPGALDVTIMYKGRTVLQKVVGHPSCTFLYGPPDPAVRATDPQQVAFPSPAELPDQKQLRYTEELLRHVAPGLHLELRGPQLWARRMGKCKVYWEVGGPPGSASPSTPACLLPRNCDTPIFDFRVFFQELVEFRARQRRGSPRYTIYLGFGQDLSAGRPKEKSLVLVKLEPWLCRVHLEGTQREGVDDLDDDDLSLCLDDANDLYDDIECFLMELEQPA"}
{"Sequence": "GACGGTTTTGGACTGGGGACGTGCTAG", "log fluorescence [z-score]": 0.429}
{"Sequence": "TTAGATTTCGGGATTCGATTAGTGCTA", "log fluorescence [z-score]": 2.22}
{"Sequence": "TCATGTTTGGGTCTTGTACTGTGCTAG", "log fluorescence [z-score]": 0.318}
{"Sequence": "GACGATATGGGGTTTCGAGACGTGCTA", "log fluorescence [z-score]": 1.59}
{"Sequence": "GATGGTCTCGGACTGGGGACGTGCTAG", "log fluorescence [z-score]": -0.00361}
{"Sequence": "TTAGCTATCGGGTTTCGGTTAGTGCTA", "log fluorescence [z-score]": 5.36}
{"Sequence": "GACGATTTCAGTCGCGAGACGTGCTAG", "log fluorescence [z-score]": 0.336}
{"Sequence": "TTAGGACTGGGATATCGGTTAGTGCTA", "log fluorescence [z-score]": 0.057}
{"Sequence": "TTAAGTTTCCTTCTCCTTTAGTGCTAG", "log fluorescence [z-score]": 2.99}
{"Sequence": "GCAGACTACCTATGAGTATCGTGCTAG", "log fluorescence [z-score]": -0.478}
{"data": "Mixed results"}
{"Substance": "PhoQ, residues 284 288 289 292 302 303 TTSMTC", "target": "PhoP, residues 12 14 15 18 19 HEGLL (Escherichia coli, UniProt P23836)", "assay": "Sort-seq, item: YFP reporter", "test system": "E. coli", "setting": "PhoQ-PhoP variant library, with: 10 µM Mg2+", "how to read": "reference: high Mg2+ state, higher = stronger signaling", "measurement": "fold induction", "result": 4.45}
{"note": "A few entries again (study 3):"}
{"Sequence": "TTAAGTTTCCTTCTCCTTTAGTGCTAG", "log fluorescence [z-score]": 2.99}
{"Sequence": "GCAGACTACCTATGAGTATCGTGCTAG", "log fluorescence [z-score]": -0.478}
{"Sequence": "TTAGATTTCGGGATTCGATTAGTGCTA", "log fluorescence [z-score]": 2.22}
